Measured values of several laboratories.
Each line is one published result; not all experiments were run side by side. ± marks the error that the study gave.
Sequence of UniProt P01024 (whole entry, looked up): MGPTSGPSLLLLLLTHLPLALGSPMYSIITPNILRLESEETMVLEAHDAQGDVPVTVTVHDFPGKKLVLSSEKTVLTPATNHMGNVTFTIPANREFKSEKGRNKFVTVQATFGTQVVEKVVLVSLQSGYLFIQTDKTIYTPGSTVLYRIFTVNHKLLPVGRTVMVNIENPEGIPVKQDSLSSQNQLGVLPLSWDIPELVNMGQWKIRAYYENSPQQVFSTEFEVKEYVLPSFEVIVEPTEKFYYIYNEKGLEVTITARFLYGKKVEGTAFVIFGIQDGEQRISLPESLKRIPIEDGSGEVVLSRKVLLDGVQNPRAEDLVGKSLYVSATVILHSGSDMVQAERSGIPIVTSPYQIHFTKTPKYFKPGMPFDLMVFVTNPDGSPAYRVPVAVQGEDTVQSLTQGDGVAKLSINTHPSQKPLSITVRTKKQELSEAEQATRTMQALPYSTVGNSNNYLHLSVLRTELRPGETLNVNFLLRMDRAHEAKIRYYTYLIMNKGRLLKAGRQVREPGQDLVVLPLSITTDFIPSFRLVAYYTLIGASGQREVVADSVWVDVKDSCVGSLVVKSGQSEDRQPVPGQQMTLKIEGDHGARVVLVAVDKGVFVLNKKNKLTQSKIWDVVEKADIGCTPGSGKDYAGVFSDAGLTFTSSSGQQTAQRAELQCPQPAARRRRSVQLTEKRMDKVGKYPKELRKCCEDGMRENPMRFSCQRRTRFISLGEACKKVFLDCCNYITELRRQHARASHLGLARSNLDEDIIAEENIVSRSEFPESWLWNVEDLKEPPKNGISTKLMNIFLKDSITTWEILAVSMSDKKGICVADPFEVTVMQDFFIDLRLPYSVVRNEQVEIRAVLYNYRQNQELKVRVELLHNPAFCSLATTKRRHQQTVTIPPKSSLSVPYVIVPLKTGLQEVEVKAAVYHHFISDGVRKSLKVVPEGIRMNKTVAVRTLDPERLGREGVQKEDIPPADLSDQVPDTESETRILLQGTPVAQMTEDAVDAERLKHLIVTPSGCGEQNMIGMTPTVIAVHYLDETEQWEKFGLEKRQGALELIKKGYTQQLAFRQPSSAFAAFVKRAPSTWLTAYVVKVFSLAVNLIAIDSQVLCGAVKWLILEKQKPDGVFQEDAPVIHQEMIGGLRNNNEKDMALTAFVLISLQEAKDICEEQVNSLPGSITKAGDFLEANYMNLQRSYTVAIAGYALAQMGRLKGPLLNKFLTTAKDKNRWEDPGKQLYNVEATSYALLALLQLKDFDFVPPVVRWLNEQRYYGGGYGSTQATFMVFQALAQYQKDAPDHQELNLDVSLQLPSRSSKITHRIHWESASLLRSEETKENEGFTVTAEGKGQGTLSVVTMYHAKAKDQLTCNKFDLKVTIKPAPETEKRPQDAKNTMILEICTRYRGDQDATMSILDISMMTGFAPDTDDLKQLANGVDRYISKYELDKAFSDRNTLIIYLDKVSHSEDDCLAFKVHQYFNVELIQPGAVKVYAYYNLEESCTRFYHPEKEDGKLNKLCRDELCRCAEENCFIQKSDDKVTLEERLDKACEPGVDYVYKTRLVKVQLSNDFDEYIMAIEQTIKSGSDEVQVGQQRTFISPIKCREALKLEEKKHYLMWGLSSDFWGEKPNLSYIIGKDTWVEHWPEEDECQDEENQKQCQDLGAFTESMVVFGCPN
Sequence of UniProt Q02750 (whole entry, looked up): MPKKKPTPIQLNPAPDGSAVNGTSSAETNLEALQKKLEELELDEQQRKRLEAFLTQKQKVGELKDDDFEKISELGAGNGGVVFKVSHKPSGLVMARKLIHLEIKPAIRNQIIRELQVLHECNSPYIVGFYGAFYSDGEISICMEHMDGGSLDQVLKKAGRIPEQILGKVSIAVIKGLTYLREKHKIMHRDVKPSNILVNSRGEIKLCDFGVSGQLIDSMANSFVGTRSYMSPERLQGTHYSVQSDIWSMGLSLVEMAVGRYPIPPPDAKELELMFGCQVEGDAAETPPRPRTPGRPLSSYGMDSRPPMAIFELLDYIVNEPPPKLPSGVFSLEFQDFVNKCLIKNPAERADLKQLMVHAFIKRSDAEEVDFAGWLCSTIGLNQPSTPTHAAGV
Sequence of UniProt Q04760 (whole entry, looked up): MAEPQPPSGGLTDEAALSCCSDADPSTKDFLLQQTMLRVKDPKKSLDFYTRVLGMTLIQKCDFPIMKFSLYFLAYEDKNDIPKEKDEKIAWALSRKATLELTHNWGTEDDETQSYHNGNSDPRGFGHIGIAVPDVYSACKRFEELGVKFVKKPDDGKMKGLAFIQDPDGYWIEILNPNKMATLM
Sequence of UniProt Q01650 (whole entry, looked up): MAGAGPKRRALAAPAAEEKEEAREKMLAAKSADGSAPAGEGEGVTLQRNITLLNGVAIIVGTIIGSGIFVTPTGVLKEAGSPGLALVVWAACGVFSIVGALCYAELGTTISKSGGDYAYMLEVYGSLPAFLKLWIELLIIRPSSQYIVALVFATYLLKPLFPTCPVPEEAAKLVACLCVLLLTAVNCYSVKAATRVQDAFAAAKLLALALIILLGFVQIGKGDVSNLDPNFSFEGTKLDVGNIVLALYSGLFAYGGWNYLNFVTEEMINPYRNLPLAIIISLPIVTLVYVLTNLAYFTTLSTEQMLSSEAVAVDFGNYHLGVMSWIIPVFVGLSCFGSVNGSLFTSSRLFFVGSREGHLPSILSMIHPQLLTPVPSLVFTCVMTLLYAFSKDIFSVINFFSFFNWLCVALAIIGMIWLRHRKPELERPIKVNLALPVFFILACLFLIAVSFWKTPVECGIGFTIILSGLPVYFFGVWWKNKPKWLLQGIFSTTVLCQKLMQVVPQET
Sequence of UniProt P34897 (whole entry, looked up): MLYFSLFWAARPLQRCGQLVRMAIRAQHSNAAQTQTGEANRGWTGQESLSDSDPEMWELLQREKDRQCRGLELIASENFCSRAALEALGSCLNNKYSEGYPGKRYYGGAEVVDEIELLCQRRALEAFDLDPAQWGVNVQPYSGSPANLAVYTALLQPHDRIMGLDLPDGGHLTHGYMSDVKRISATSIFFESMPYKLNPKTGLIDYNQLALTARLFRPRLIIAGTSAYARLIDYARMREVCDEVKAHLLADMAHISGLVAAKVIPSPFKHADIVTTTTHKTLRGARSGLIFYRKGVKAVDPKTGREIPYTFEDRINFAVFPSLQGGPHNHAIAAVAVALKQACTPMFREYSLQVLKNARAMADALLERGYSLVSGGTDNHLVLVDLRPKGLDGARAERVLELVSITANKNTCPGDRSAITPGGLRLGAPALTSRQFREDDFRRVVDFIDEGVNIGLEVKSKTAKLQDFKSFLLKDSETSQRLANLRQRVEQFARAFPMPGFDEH
Sequence of UniProt P49720 (whole entry, looked up): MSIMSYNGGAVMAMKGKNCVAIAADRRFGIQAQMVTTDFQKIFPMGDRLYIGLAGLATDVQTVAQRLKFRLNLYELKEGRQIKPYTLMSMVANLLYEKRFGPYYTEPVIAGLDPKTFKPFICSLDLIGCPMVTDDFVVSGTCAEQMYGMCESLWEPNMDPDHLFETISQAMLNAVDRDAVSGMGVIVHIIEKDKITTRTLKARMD
Sequence of UniProt Q08499 (whole entry, looked up): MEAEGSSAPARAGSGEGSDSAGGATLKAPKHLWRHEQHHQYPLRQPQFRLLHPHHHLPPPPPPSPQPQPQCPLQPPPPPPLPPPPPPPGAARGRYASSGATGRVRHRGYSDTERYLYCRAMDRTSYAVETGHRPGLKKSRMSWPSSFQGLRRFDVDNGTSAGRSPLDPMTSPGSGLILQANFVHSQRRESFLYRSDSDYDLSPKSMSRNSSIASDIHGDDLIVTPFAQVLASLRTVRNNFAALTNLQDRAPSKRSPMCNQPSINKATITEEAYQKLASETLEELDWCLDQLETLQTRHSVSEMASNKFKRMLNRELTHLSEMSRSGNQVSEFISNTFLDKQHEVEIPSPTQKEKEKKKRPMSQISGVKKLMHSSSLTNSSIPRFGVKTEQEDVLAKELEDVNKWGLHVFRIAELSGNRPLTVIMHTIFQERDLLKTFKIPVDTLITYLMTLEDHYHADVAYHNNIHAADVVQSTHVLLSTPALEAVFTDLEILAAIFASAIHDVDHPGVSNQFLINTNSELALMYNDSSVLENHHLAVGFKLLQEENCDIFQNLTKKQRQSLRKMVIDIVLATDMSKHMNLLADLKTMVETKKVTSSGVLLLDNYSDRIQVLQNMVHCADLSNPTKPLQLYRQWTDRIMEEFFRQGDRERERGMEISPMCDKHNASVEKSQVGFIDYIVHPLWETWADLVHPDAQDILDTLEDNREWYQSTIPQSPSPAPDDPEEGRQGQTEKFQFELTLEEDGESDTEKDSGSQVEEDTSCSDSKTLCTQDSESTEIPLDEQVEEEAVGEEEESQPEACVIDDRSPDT
Sequence of UniProt Q9D358 (whole entry, looked up): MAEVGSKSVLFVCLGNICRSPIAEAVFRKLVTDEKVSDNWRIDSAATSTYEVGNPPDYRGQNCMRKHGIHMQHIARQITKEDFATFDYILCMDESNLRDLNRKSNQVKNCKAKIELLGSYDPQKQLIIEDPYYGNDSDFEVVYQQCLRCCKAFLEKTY
Sequence of UniProt Q9NXA8 (whole entry, looked up): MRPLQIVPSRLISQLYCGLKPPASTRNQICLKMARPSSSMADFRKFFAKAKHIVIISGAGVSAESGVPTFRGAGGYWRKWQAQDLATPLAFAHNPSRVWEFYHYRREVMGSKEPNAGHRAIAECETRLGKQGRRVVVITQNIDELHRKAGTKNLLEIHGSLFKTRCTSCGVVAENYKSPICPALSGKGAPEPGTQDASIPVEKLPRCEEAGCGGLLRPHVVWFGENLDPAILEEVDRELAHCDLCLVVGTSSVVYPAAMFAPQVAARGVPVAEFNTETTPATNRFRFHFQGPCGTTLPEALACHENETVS
Sequence of UniProt P0AGE0 (whole entry, looked up): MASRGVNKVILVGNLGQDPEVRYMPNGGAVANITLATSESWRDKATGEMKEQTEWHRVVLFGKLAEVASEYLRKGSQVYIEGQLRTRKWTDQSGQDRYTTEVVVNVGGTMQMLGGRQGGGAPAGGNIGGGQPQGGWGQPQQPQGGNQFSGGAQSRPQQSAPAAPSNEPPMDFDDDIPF

SMILES | target | test | system | conditions | IC50
O=C(O)CCCC(=S)NCCCC[C@H](NC(=O)OCc1ccccc1)C(=O)Nc1ccccc1 | SIRT5 (Homo sapiens, UniProt Q9NXA8) | desuccinylase activity, inhibitor |  | added: succinyl-H3K9 peptide | 43 µM
N[C@@H](Cc1c[nH]c2ccc(OCc3ccc(-c4ccsc4)cc3)cc12)C(=O)O | SLC7A5 (Homo sapiens, UniProt Q01650) | transporter uptake, inhibitor, radiometric |  |  | 19 µM
Cc1cc(N2CC[C@@](C#N)(C3(C)CC3)C2=O)cc(C(=O)NCc2cc(F)cc(-c3cnn(C)c3)c2)n1 | PDE4D (Homo sapiens, UniProt Q08499) | enzyme activity, inhibitor |  |  | > 10 µM
CC(CCC(=O)NCC(=O)O)C1CCC2C3CCC4CC(O)CCC4(C)C3CC(O)C12C (stereo not drawn) | SHMT2 (Homo sapiens, UniProt P34897) | serine to glycine conversion, inhibitor |  | pH 7.5, 1% DMSO, added: L-serine 1 mM, THF 0.2 mM | 0.83 µM
CC1CC2(N=CCS2)C2(O)OC3CC4(C)C(CC3OC2O1)CC1OC12C4C(O)C(=O)C1(C)C(C3=CC(=O)OC3)CCC12O (stereo not drawn) | Na+/K+-ATPase Oncopeltus fasciatus |  | neural tissue |  | 91 µM
COc1cc2ncnc(Nc3ccc(Oc4ccccc4)c(C)c3C)c2cc1OC | Dual specificity mitogen-activated protein kinase kinase 1, phosphorylated (MAP2K1, Homo sapiens, UniProt Q02750) | ATP-biotin probe binding, inhibitor, probe-labelling competition |  | active MEK1 | > 10 µM
Nc1cccc2ccc(O)c(/N=N/c3ccc(S(N)(=O)=O)cc3)c12 | GLO1 (Homo sapiens, UniProt Q04760) | enzyme activity, inhibitor |  |  | 8.61 µM
O=C(O)c1cccc(/C=N/OCCCO/N=C/c2cc(=O)[nH]c(=O)[nH]2)c1 | UNG (Homo sapiens, UniProt P13051) | enzyme activity, inhibitor, fluorescence |  |  | 11 µM
CC(C)[C@@H]1NC(=O)[C@@H](NC(=O)[C@@H](N)CCC(N)=O)CSSC[C@@H](C(=O)N[C@@H](Cc2c[nH]c3ccccc23)C(N)=O)NC(=O)[C@H](CCC(N)=O)NC(=O)[C@H](CC(N)=O)NC(=O)[C@H](CCC(N)=O)NC(=O)CNC(=O)[C@H](Cc2c[nH]c3ccccc23)NC(=O)[C@H](CC(=O)O)NC(=O)[C@H](CCC(N)=O)NC(=O)[C@H](Cc2c[nH]c3ccccc23)NC1=O | Complement C3 (Homo sapiens, UniProt P01024) | C3b formation, ELISA | normal human serum | added: LPS-coated plate | 1.98 µM
CCN(CC)C(=O)c1ccc(-c2cc(NCCCN3CCCCC3)c3ccccc3n2)cc1 | Low molecular weight phosphotyrosine protein phosphatase, isoform A (Mus musculus, UniProt Q9D358) | enzyme activity, inhibitor |  | added: OMFP | 0.8 µM
COc1ccc2c(c1)C(CC(=O)NC(C(=O)NC(CCc1ccccc1)C(=O)NCc1ccc(C)cc1)C(C)O)CC2=O (stereo not drawn) | Proteasome subunit beta type-3/PSMB7 (Homo sapiens, UniProt P49720+Q99436) | inhibitor |  |  | > 100 µM
O=C1C[C@@H](c2ccc(O)cc2)Oc2cc(O)ccc21 | Prothrombin (F2, Homo sapiens, UniProt P00734) | enzyme activity, inhibitor, fluorescence |  | with preincubation | > 100 µM
Cc1ccc2nc(-c3ccc(N=NNc4ccc(-c5nc6ccc(C)c(S(=O)(=O)O)c6s5)cc4)cc3)sc2c1S(=O)(=O)O | Single-stranded DNA-binding protein (ssb, Escherichia coli, UniProt P0AGE0) | DNA binding, fluorescence polarization |  | added: Cy5-dT15 DNA 5 nM | 2.9 ± 0.2 µM
Cc1cc(NC(=O)c2cccc(-n3cc(NC(=O)Nc4ccc(Cl)cc4)cn3)c2)ccn1 | MAPK9 (Homo sapiens, UniProt P45984) | enzyme activity, inhibitor |  |  | 0.65 µM
C=CC1(C)CCC2C(=CC3OC(=O)C4(C)C3C23CCC4(O)OC3)C1 (stereo not drawn) | Saccharomyces cerevisiae alpha-glucosidase | enzyme activity, inhibitor |  | added: pNPG substrate | 612.03 ± 0.39 µg/mL

Repeated from above:
SMILES | target | test | system | conditions | IC50
O=C(O)c1cccc(/C=N/OCCCO/N=C/c2cc(=O)[nH]c(=O)[nH]2)c1 | UNG (Homo sapiens, UniProt P13051) | enzyme activity, inhibitor, fluorescence |  |  | 11 µM
N[C@@H](Cc1c[nH]c2ccc(OCc3ccc(-c4ccsc4)cc3)cc12)C(=O)O | SLC7A5 (Homo sapiens, UniProt Q01650) | transporter uptake, inhibitor, radiometric |  |  | 19 µM
